Assay results gathered from unrelated publications.
Every numbered part comes from another study and shows a few of its results, in no order.

Block 1
Target: RNA binding protein fox-1 homolog 2, RRM domain, GST-SBP tag (RBFOX2, Homo sapiens, UniProt O43251-10, residues 100-194)
Technique: RNA Bind-n-Seq
Form: RNA
Matrix: in vitro
Concentration: 365 nM
Notes: natural RNA segment, single round, ends assumed
Reference: no-protein control
Reading: higher = stronger binding
Shared flanks, not repeated: GGGAGUUCUACAGUCCGACGAUC … UGGAAUUCUCGGGUGCCAA
Target sequence (chain): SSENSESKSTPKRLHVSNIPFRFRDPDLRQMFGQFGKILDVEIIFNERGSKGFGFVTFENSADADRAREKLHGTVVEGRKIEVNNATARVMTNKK
Under “RBNS enrichment (R)”, `AUGACAUGUGGAGAUGGGACUUAGUGUGUGAGGCAUAGGGUCAUUGGAGAUUCUUCAGACUCGGGGGAGACUGAAUUGGAUGCCUCUCUCAUCCCAGCACACUUCUAAUA` is recorded as 0.857.
Under “RBNS enrichment (R)”, `CCUGUGGGAUCGUUGCCUGGUUUGUCUUCUCUGUGUCCUGGAGCAAAGCCAGUUCCUAAAACUAAAACUCCAUUCUAGUCUUGGGAAGAAAAGUUUCUACUCAGAACUGG` is recorded as 0.218.
`ACAAAUGUGUCAUUCAAAACAGUAAUUAGGGAAAUCCCACAGAUGAAAAAUGCCUUAGUGAUAAGCUUUCAUGGCAGAGCACGUCAAGAUAAAUGGGUAUACUGGAAUCC` — result for “RBNS enrichment (R)”: 0.405.
For `GCGACUCCAAAGCUCUAGGCCAGAUGUUACAGUUGUUCGCAGCAGGCUCGAUUCUGCCCUCUCUUUUUAACCAUCUCCCUUGUAGAUGAUCCGGGCCACUAGAGAUUAGC`, “RBNS enrichment (R)” read 0.546.
For `ACUGUAUCCUAUGAGUGACGUGUGUGUUGGGGGAGGGUGGGCCUGCCUGGUGUUACACAGAGCAUGGCGUGGCUGGUCUGGAGCGCAUAGCAAUAAUACUGUGCUGUGGU`, “RBNS enrichment (R)” read 2.03.
For `UUUAUAUUAGUGUAAAUAGAAAAUCUAUAGACAACUUUCUAGUUUUCUCUGGAGGCAUUUUUGGGAAUGUACGUGUAAUAGGCUCUGCUUUGUAUACAGGAGAUAAUACC`, “RBNS enrichment (R)” read 0.598.
`AAAUGGGGCCACCUCUUGCCAGCAGUAGCAGGGCUGCCCACGCCCCUUUCUCCCCAUGCCCCAUCCAGCACUUGGGCGACUCAUGCCUCUGCCUCAGUGGGCCUGUGGGA`: “RBNS enrichment (R)” 0.383.
Under “RBNS enrichment (R)”, `GAUGGCGACAGGUUGGCUUAGGUGGAGGAAGAAAAGAGUUAUCAUUUUUAGACUAAAUCCACGCAUGAAAAAUAUUUCCUCAUUAUUCUUAUCUGCUUAGUGGAUUUUAU` is recorded as 4.98.

Block 2
Target: Ras GTPase-activating protein-binding protein 1, RRM domain (G3BP1, Homo sapiens, UniProt Q13283)
Sequence of UniProt Q13283 (whole entry, looked up): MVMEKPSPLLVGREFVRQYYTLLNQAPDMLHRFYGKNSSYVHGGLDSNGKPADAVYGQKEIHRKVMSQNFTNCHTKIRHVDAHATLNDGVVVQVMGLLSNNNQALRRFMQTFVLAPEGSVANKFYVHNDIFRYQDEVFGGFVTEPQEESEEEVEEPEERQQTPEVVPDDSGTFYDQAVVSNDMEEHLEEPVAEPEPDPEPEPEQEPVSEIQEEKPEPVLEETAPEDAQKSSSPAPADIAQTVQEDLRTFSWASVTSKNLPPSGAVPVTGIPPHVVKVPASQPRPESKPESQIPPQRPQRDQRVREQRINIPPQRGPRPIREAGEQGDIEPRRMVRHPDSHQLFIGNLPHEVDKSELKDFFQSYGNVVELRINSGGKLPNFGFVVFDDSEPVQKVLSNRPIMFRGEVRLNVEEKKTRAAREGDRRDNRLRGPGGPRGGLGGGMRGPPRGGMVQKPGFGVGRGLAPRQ
Technique: RNA Bind-n-Seq
Form: RNA
Matrix: in vitro
Concentration: 1 µM
Notes: whole 134-nt RNA, ends assumed
With: 150 mM KCl
Reference: input library
Reading: higher = stronger binding
Shared flanks, not repeated: GGGAGUUCUACAGUCCGACGAUC … UGGAAUUCUCGGGUGUCAAGG
For `CUCAAGUCCUGUGCUACACAUCGUAUGUACCGAAUCGGAAAGGUGGAAAAAGGAAAGUAUUAUGUUACGCCGUUCGGAUCUGCACUUCCA`, the log2 enrichment was -0.192.
For `AAGUCCUGUGCUACACAUCGUAUGUACCGAAUCGGAAAAAGGUUUGGAAAAAAAGGAAAGUAUUAUGUUACGCCGUUCGGAUCUGCACUU`, the log2 enrichment was -0.193.
`CAAGUCCUGUGCUACACAUCGUAUGUACCGAAUCGGGGAAAGGGGAAAGGAAAGGAAAGUAUUAUGUUACGCCGUUCGGAUCUGCACUUC` gave a log2 enrichment of -0.253.
For `UUUGCUGAUUUCUGGCUGGCGGAUCAGCUGAACAGCCUGUCAGUGAUACUGAUGGACCUGGAAUAUAUGAUCUGCUUCUACAGUUUGGAG`, the log2 enrichment was -0.431.
The log2 enrichment of `UGUGGGUCCUCCUGCACCUGGUGCUGGCCUUCCUGUCCCUGCGCUCUUUGACAGCCUCCUGACCUGUAGGACGAGGGAUUCCUUGUUCUU` is reported as -0.298.
`UGGCCCUGGUGGCAUGCUGGGAGGAAGAGGUGGCCUCAUGGAUCGUGGUGGUCCCGGUGGAAUGUUCAGAGGUGGCCGUGGUGGAGACAG` gave a log2 enrichment of 1.11.
With `CCUGUGCUACACAUCGUAUGUACCGAAUCGGGAAAAAGGGUUUUUUUGGGAAAAAAAGGGAAAGUAUUAUGUUACGCCGUUCGGAUCUGC` the log2 enrichment was -0.216.
With `UAACUUUAGAGGAGGAUCUGAUGGAUAUGGCAGUGGAUGUGGAUUUGGGGAUGGCUAUAAUGGGUAUGGAGGAGGACCUGGAGGUGGCAA` the log2 enrichment was -0.642.
The log2 enrichment of `GUCCUGUGCUACACAUCGUAUGUACCGAAUCGGGGAAAAAAAGGGGUUUGGGGAGGGGAAAGUAUUAUGUUACGCCGUUCGGAUCUGCAC` is reported as 1.23.

Block 3
Target: RING finger protein unkempt homolog, zinc fingers 1-6, GST-SBP tag (UNK, Homo sapiens, UniProt Q9C0B0, residues 30-357)
Technique: RNA Bind-n-Seq
Form: RNA
Matrix: in vitro
Concentration: not given
Notes: RNA with constant flanks, human-mouse chimeric sites, ends assumed
Reference: input RNA pool
Reading: higher = stronger binding
Shared flanks, not repeated: GGGAGUUCUACAGUCCGACGAUC … CAACAGAGGAUUGAGCAUCA
Residues (chain): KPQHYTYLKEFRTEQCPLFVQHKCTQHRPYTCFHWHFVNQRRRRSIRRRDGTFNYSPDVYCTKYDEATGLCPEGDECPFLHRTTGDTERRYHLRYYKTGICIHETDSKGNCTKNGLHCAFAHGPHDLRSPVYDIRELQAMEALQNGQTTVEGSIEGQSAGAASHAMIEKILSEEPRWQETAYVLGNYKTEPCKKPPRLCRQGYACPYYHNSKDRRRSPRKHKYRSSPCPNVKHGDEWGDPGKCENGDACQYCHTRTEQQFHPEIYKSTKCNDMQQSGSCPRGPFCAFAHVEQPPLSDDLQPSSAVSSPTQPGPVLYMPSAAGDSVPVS
`CACGUGUCUGCAGUACUUGAUGUGGACUACUCUCCCACUGGGAAGGAAUUUGUGUCUGCUAGUUUCGAUAAGUCUAUUAGAAUCUUUCCUGUGGACAAAAGUCGAAGCAGGGAAGUGUAU` has a bound/input enrichment of 1.47 ratio.
With `GCCACCAGAUCCCAGAAACAUGACCCUUGCUGCCUACAAAGAGAAGAUGAAGGAGCUCCCGCUGGUGUCUCUGUUCUGCUCCUGCUUCUUGUCUGAUCCCCUGAAUAAGUCGUCCUACAA` the bound/input enrichment was 0.348 ratio.
`UUAUCCAAGACUCAACGAAAGACUCCAACCGUUAUUCAUAAACAUUAUCAAAUUCAUCGCAUUAGACAUUUUUAUAUGAGAAAAGUCAAAUUUACUCAACAGAAUUACCAUGACAGACUG` has a bound/input enrichment of 23 ratio.
For `GCGGCAGAAUCAUGGAGGACAUGAUGGAGCUCCCCAAAGCGCGCGUCAACGCCAGCAUGUUACCACAGUAUAUCGACCGGCCCGUGUGCUUCGUGGGGAAGCUGGAAAAGAUUCAUCCCA`, the bound/input enrichment was 0.158 ratio.
For `GCGGCAGAAUCAUGGAGGACAUAAUGCAGCUCCCCAAAGCGCGCGUCAACGCCGGCAUGUUACCACAAUUCAUCGACCGGCCCGUGUGCUUCGUGGGGAAGCUGGAAAAGAUUCAUCCCA`, the bound/input enrichment was 0.0754 ratio.
With `GAUGAUAAUCACACAAACAAGUCACUGUUAUGUGACCAGAGUUGUACUUCUUUUCCUGAUUAAUAUUCUCCCUGGAACCACUGGUCAAGGGGAAUCAAGACGACAAGAACCCGGGGACUU` the bound/input enrichment was 0.199 ratio.
For `UAAAUCCAUUUGUAAGCCUUCGCUCAUAAAGUUUUAAAUUCUGGACCAAUAGUGUUUGUUUCCUGAUUAUUGUAUCCAAUACUUUGCCUAGUAUGUAACUCACUCUUACUGAUAAUAAAA`, the bound/input enrichment was 1.55 ratio.
With `GUAGCUGGCCAUUAGGAAAUGCUGGUAAUUUCAGUCACUUGCUGAUGACUUCUGAUGUCCCAGCAAAUGUUGGCAUUCACUGCAAUAGAGAAGAUACUUCUGAGGACCCACGUCUAAGGU` the bound/input enrichment was 4.67 ratio.

Block 4
Target: Sal-like protein 4, full length isoform A (SALL4, Homo sapiens, UniProt Q9UJQ4, residues 1-1053)
Sequence of UniProt Q9UJQ4 (whole entry, looked up): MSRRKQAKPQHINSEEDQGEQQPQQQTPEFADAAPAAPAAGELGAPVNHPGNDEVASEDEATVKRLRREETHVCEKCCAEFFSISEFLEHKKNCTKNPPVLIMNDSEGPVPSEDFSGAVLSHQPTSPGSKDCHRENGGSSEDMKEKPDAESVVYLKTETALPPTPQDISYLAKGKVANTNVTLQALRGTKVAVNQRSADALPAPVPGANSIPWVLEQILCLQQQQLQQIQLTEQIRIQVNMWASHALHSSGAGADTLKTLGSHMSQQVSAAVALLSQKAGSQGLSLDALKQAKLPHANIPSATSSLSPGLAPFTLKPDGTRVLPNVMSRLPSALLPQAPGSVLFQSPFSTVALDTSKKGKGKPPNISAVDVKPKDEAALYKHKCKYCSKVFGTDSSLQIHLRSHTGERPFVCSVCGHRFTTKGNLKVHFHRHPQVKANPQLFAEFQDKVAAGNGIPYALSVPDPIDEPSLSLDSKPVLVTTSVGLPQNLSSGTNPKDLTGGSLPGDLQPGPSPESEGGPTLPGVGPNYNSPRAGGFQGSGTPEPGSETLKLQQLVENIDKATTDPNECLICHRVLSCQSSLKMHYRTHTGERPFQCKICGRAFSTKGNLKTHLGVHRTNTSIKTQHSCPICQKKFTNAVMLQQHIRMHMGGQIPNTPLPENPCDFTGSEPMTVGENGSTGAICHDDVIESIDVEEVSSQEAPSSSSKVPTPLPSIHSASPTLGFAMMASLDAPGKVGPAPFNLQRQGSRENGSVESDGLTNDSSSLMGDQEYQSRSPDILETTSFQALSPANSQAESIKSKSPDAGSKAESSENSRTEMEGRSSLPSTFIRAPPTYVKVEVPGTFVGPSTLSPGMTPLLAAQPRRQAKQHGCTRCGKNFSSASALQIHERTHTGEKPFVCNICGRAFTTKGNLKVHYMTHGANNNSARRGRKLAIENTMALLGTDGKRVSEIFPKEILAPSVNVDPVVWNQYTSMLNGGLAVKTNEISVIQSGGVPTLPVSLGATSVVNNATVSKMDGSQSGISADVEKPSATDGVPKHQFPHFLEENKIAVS
Technique: universal PBM
Form: double-stranded DNA, one strand shown
Matrix: in vitro
Concentration: 600 nM
Notes: 8-mer, flanks averaged, mean of replicates
Reading: higher = stronger binding
With `CTAAGGCC` the E-score was -0.274.
`ATCTTCCC` gave an E-score of -0.027.
`CTCGTGAA` has an E-score of 0.0888.
`AGGTGTAT` gave an E-score of 0.176.
`AGGTATGG` has an E-score of -0.0861.
The E-score of `ATGATGTG` is reported as 0.113.
For `AAACCATG`, the E-score was 0.0176.
`ACGGGTGA` gave an E-score of -0.115.
With `GCGGGCGA` the E-score was -0.353.
The E-score of `CTCATGCA` is reported as 0.119.
`AGAAAGAT` has an E-score of 0.168.
The E-score of `TAGATTGA` is reported as 0.163.
With `AAACAAAT` the E-score was 0.329.
`CGCGATAG` gave an E-score of -0.105.
The E-score of `ACAACCCT` is reported as -0.149.
`GATCTAAA` has an E-score of 0.224.
With `ACCATGGA` the E-score was -0.146.
`ATCCCTGA` gave an E-score of -0.0728.
With `GACACATC` the E-score was -0.0337.
`CATACAAG` has an E-score of 0.135.

Block 5
Target: Histone acetyltransferase KAT6A, both winged helices, GST fusion (KAT6A, Homo sapiens, UniProt Q92794, residues 1-181)
Technique: protein binding microarray
Form: double-stranded DNA, one strand shown
Matrix: in vitro
Concentration: not given
Notes: 8-mer, flanks averaged, mean of 2 arrays, mostly near background
Reference: not given
Reading: higher = stronger binding
Construct (chain): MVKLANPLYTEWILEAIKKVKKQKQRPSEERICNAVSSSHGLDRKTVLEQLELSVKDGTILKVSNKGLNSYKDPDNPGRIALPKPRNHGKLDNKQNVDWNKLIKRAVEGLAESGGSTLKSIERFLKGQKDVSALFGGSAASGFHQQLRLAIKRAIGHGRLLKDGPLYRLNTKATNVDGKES
`ATCTCGCG` has an E-score of 0.17.
`AAACTAAA` gave an E-score of -0.174.
`CAAAACCA` gave an E-score of -0.0888.
`GCTTGGAC` has an E-score of -0.0043.
`GATAACGC` has an E-score of 0.239.
`ATCAGGGA` gave an E-score of -0.25.
With `TAATAACA` the E-score was 0.0579.
With `CGCACTAG` the E-score was 0.144.
The E-score of `CTCGCAGC` is reported as -0.0132.
With `AGAAGGGC` the E-score was 0.0129.
`ACTCGTGA` has an E-score of -0.0909.
With `CTATGAAA` the E-score was 0.0025.
`ACGAAATC` gave an E-score of -0.0457.
`CCATTGGA` gave an E-score of -0.0922.
`AATCTGAT` has an E-score of -0.00684.
`ATCCGTCG` has an E-score of 0.26.
`ATTCACTA` gave an E-score of -0.169.
`CCAATCCC` has an E-score of -0.172.
`ACAAAATC` has an E-score of -0.0741.
`ACTACTCA` has an E-score of -0.066.

For quick reference, copied from above (block 3):
`CACGUGUCUGCAGUACUUGAUGUGGACUACUCUCCCACUGGGAAGGAAUUUGUGUCUGCUAGUUUCGAUAAGUCUAUUAGAAUCUUUCCUGUGGACAAAAGUCGAAGCAGGGAAGUGUAU` has a bound/input enrichment of 1.47 ratio.
With `GCCACCAGAUCCCAGAAACAUGACCCUUGCUGCCUACAAAGAGAAGAUGAAGGAGCUCCCGCUGGUGUCUCUGUUCUGCUCCUGCUUCUUGUCUGAUCCCCUGAAUAAGUCGUCCUACAA` the bound/input enrichment was 0.348 ratio.
`UUAUCCAAGACUCAACGAAAGACUCCAACCGUUAUUCAUAAACAUUAUCAAAUUCAUCGCAUUAGACAUUUUUAUAUGAGAAAAGUCAAAUUUACUCAACAGAAUUACCAUGACAGACUG` has a bound/input enrichment of 23 ratio.
For `GCGGCAGAAUCAUGGAGGACAUGAUGGAGCUCCCCAAAGCGCGCGUCAACGCCAGCAUGUUACCACAGUAUAUCGACCGGCCCGUGUGCUUCGUGGGGAAGCUGGAAAAGAUUCAUCCCA`, the bound/input enrichment was 0.158 ratio.
For `GCGGCAGAAUCAUGGAGGACAUAAUGCAGCUCCCCAAAGCGCGCGUCAACGCCGGCAUGUUACCACAAUUCAUCGACCGGCCCGUGUGCUUCGUGGGGAAGCUGGAAAAGAUUCAUCCCA`, the bound/input enrichment was 0.0754 ratio.
With `GAUGAUAAUCACACAAACAAGUCACUGUUAUGUGACCAGAGUUGUACUUCUUUUCCUGAUUAAUAUUCUCCCUGGAACCACUGGUCAAGGGGAAUCAAGACGACAAGAACCCGGGGACUU` the bound/input enrichment was 0.199 ratio.
For `UAAAUCCAUUUGUAAGCCUUCGCUCAUAAAGUUUUAAAUUCUGGACCAAUAGUGUUUGUUUCCUGAUUAUUGUAUCCAAUACUUUGCCUAGUAUGUAACUCACUCUUACUGAUAAUAAAA`, the bound/input enrichment was 1.55 ratio.
With `GUAGCUGGCCAUUAGGAAAUGCUGGUAAUUUCAGUCACUUGCUGAUGACUUCUGAUGUCCCAGCAAAUGUUGGCAUUCACUGCAAUAGAGAAGAUACUUCUGAGGACCCACGUCUAAGGU` the bound/input enrichment was 4.67 ratio.
